Results pooled from the literature.
Every numbered part comes from another study and shows a few of its results, in no order. Several values in a cell are separate wells, animals, samples, runs or records.
Sequence of UniProt Q05655 (whole entry, looked up): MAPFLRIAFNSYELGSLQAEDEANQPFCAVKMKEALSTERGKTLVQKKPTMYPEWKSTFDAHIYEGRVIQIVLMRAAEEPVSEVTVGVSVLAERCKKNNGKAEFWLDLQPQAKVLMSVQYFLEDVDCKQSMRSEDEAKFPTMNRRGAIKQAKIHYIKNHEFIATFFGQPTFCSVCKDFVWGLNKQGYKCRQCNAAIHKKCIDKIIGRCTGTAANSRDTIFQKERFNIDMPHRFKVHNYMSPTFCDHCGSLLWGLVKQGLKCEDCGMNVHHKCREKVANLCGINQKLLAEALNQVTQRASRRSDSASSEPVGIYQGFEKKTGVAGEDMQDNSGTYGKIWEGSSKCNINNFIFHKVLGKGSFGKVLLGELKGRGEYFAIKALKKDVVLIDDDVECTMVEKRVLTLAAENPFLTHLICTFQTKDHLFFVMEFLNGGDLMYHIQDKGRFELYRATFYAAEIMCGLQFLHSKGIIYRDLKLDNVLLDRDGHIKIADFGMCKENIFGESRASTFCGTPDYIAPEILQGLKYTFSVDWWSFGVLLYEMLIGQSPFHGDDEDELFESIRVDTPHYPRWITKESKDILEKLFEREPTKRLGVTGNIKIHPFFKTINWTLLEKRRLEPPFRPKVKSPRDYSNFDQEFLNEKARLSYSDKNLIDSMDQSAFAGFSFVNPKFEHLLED
Sequence of UniProt P21860 (whole entry, looked up): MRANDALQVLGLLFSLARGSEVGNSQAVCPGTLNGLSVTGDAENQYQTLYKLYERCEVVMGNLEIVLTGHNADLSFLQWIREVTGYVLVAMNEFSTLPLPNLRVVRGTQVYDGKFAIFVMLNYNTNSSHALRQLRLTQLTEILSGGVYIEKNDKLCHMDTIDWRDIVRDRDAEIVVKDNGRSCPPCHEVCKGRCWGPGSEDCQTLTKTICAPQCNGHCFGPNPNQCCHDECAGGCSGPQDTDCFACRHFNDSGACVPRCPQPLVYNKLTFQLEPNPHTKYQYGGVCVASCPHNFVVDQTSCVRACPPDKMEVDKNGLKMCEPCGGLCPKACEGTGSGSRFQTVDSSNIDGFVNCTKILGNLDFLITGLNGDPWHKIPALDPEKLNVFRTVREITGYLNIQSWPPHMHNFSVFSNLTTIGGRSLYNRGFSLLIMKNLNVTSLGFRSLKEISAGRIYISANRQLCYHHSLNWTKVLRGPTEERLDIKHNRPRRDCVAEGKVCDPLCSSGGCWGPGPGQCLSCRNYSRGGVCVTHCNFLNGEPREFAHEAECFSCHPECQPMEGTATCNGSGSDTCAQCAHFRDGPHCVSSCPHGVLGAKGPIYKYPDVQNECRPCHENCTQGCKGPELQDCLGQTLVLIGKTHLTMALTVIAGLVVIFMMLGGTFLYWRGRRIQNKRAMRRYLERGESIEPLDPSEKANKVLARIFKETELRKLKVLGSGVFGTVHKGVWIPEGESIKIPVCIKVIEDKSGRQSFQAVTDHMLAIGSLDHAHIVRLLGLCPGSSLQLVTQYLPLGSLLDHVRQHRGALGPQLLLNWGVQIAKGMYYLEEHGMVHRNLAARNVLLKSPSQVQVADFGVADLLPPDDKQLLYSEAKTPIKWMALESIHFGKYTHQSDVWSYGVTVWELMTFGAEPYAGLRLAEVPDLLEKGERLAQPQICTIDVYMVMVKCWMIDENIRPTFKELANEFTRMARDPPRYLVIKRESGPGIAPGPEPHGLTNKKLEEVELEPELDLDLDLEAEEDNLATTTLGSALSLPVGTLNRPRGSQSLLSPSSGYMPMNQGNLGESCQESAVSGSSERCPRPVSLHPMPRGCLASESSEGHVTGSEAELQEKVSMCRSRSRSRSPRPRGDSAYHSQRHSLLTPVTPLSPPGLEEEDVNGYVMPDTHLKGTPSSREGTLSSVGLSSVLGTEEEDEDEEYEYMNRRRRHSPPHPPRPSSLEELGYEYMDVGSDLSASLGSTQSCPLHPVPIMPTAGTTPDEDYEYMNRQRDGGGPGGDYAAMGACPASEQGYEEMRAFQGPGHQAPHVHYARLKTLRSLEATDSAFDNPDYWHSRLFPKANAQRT
Sequence of UniProt Q5S007 (whole entry, looked up): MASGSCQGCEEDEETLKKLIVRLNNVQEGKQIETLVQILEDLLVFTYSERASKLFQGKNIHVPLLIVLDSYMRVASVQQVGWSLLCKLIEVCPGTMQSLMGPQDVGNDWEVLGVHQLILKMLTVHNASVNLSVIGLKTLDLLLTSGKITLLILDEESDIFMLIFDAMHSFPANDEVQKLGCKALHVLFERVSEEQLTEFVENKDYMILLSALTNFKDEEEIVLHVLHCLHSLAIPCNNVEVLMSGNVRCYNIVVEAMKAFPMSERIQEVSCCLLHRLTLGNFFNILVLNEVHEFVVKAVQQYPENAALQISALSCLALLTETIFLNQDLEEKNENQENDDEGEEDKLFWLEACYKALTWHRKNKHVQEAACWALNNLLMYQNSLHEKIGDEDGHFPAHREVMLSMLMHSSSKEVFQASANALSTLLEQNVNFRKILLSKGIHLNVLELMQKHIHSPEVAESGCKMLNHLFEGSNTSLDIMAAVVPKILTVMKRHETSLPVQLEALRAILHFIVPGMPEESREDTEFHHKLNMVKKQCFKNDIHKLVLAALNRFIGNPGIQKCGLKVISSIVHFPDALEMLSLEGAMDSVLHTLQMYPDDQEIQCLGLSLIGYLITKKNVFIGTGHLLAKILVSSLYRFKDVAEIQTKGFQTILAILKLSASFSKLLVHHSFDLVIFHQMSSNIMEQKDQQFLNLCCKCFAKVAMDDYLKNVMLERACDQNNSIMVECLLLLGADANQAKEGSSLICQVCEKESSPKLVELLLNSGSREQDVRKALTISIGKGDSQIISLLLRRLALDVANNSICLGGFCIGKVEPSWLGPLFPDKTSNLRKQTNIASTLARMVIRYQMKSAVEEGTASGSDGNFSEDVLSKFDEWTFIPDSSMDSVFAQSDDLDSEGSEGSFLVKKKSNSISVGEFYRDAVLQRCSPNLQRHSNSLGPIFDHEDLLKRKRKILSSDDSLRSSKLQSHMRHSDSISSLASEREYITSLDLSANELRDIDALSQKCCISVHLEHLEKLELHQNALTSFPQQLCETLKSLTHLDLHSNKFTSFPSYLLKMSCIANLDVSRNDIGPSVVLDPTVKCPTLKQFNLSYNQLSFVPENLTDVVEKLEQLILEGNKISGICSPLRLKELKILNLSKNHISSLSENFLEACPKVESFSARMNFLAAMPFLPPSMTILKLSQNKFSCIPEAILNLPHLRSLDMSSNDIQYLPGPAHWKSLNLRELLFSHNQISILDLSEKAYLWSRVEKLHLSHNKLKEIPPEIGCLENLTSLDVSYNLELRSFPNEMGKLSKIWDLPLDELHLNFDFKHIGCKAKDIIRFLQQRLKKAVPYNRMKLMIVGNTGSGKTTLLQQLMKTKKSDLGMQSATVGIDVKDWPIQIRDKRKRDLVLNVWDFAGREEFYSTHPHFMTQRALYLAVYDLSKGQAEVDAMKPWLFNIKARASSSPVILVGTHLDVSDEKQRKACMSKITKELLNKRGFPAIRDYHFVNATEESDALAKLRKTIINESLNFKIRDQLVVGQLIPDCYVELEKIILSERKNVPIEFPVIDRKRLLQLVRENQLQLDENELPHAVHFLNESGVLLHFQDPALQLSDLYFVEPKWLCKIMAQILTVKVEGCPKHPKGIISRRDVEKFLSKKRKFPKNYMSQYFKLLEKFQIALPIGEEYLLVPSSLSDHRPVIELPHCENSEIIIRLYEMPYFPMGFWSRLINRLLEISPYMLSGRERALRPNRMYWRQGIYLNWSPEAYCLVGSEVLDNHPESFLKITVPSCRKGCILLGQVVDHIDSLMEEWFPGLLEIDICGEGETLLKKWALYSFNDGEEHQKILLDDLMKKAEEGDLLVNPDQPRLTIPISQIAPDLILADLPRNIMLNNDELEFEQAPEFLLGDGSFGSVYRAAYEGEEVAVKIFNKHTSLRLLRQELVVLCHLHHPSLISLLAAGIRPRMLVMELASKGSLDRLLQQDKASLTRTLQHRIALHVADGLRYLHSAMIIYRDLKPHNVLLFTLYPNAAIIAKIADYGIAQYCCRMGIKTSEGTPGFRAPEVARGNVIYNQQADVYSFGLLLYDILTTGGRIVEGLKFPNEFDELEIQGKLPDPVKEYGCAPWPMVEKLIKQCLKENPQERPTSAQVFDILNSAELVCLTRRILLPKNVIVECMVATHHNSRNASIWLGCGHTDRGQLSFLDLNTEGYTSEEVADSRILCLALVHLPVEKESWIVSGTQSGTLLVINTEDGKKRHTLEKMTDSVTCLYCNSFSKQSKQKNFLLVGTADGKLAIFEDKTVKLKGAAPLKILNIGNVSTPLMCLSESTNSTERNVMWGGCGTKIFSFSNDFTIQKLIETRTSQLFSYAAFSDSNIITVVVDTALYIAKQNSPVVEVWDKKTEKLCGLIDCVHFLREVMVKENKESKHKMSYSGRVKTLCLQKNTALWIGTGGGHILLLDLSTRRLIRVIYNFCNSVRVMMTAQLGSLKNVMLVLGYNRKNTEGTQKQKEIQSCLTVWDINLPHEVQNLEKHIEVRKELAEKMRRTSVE
Sequence of UniProt P48729 (whole entry, looked up): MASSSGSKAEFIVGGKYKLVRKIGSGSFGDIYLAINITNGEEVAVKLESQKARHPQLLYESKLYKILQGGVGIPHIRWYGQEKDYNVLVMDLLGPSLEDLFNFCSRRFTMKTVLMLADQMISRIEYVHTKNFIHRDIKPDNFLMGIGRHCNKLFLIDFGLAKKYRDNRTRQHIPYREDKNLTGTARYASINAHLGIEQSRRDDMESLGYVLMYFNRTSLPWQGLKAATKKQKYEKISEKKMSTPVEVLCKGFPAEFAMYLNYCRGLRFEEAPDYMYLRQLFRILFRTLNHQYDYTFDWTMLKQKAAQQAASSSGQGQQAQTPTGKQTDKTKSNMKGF

Set 1
Compound: CC(=O)c1c(NS(C)(=O)=O)c2cc(-c3ccc(Cl)cc3)c(-c3ccc(Cl)cc3Cl)nc2n(C)c1=O
Effect on: cell-free assay
Technique: competition with immobilised ligand
Concentration: 1 µM
Measurement: remaining binding
target = PRKCD (Homo sapiens, UniProt Q05655); value = 98%
target = RIPK1 (Homo sapiens, UniProt Q13546); value = 97%
target = PAK2 (Homo sapiens, UniProt Q13177); value = 100%
target = MAP3K14 (Homo sapiens, UniProt Q99558); value = 63%
target = CSNK1A1 (Homo sapiens, UniProt P48729); value = 100%
target = EGFR (Homo sapiens, UniProt P00533, del752-759); value = 100%
target = SRPK2 (Homo sapiens, UniProt P78362); value = 100%
target = NEK11 (Homo sapiens, UniProt Q8NG66); value = 79%
target = NTRK2 (Homo sapiens, UniProt Q16620); value = 94%
target = SBK3 (Homo sapiens, UniProt P0C264); value = 95%
target = CDKL1 (Homo sapiens, UniProt Q00532); value = 91%
target = CLK1 (Homo sapiens, UniProt P49759); value = 100%
target = ERBB3 (Homo sapiens, UniProt P21860); value = 85%
target = TNK2 (Homo sapiens, UniProt Q07912); value = 92%
target = PIK3CD (Homo sapiens, UniProt O00329); value = 100%
target = Ribosomal protein S6 kinase alpha-4, C-terminal kinase domain (RPS6KA4, Homo sapiens, UniProt O75676); value = 93%
target = Ribosomal protein S6 kinase alpha-3, N-terminal kinase domain (RPS6KA3, Homo sapiens, UniProt P51812); value = 75%

Set 2
SMILES: Cc1cc(Nc2cc(N3CCN(C)CC3)nc(Sc3ccc(NC(=O)C4CC4)cc3)n2)[nH]n1
Effect on: enzyme activity
Mode: inhibitor
Concentration: 0.5 µM
Reference: control
Measurement: remaining activity
target = CHEK1 (Homo sapiens, UniProt O14757); value = 77.1%
target = EPHA5 (Homo sapiens, UniProt P54756); value = 88%
target = PRKCD (Homo sapiens, UniProt Q05655); value = 97.5%
target = PLK2 (Homo sapiens, UniProt Q9NYY3); value = 104%
target = LYN (Homo sapiens, UniProt P07948); value = 52.6%
target = STK38 (Homo sapiens, UniProt Q15208); value = 97.8%
target = BTK (Homo sapiens, UniProt Q06187); value = 63.6%
target = WNK2 (Homo sapiens, UniProt Q9Y3S1); value = 96%
target = LRRK2 (Homo sapiens, UniProt Q5S007); value = 56.4%
target = CSNK2A1 (Homo sapiens, UniProt P68400); value = 114%
target = AKT3 (Homo sapiens, UniProt Q9Y243); value = 85%

Set 3
Organism: Sarcocystis neurona
Effect on: parasite growth
Concentration: 10 µM
Time: 96 h
Notes: first screen
Reference: untreated
Measurement: log2 fold change
SMILES = Cc1ncc([N+](=O)[O-])n1CC(O)CCl (stereo not shown); value = 0.0257
SMILES = Clc1ccc(COC(Cn2ccnc2)c2ccc(Cl)cc2Cl)c(Cl)c1 (stereo not shown); value = -1.1
SMILES = CC(=O)[C@@]1(O)CC[C@H]2[C@@H]3C[C@H](C)C4=CC(=O)C=C[C@]4(C)[C@@]3(F)[C@@H](O)C[C@@]21C; value = 0.26
SMILES = Nc1nc(F)nc2c1ncn2[C@@H]1O[C@H](CO)[C@@H](O)[C@@H]1O; value = -0.0164
SMILES = Nc1nc(N)nc(-c2cc(Cl)ccc2Cl)n1; value = 0.31
SMILES = CNCCCN1c2ccccc2CCc2ccccc21; value = 0.0242
SMILES = N[C@@H](Cc1cc(I)c(Oc2cc(I)c(O)c(I)c2)c(I)c1)C(=O)O; value = 0.29
SMILES = COC(=O)C1=C(C)NC(C)=C(C(=O)OCC(C)C)C1c1ccccc1[N+](=O)[O-] (stereo not shown); value = -0.24
SMILES = C[C@H]1C[C@H]2[C@@H]3CCC4=CC(=O)C=C[C@]4(C)[C@@]3(F)[C@@H](O)C[C@]2(C)[C@@]1(O)C(=O)CO; value = 0.31
SMILES = CC(=O)Nc1ccc(CC(=O)O)cc1; value = 0.0654
SMILES = CN1CC(=O)N2[C@H](c3ccc4c(c3)OCO4)c3[nH]c4ccccc4c3C[C@@H]2C1=O; value = -0.59
SMILES = O=C(CCCN1CC=C(n2c(=O)[nH]c3ccccc32)CC1)c1ccc(F)cc1; value = -1.37
SMILES = C[C@@H]1O[C@@H](OC[C@H]2O[C@@H](Oc3c(-c4ccc(O)c(O)c4)oc4cc(O)cc(O)c4c3=O)[C@H](O)[C@@H](O)[C@@H]2O)[C@H](O)[C@H](O)[C@H]1O; value = 0.0232
SMILES = CC(=O)NS(=O)(=O)c1ccc(N)cc1; value = 0.2
SMILES = OC(Cn1cncn1)(Cn1cncn1)c1ccc(F)cc1F; value = 0.0442
SMILES = NS(=O)(=O)Cc1noc2ccccc12; value = 0.15
SMILES = C[C@@H](O)[C@H]1C(=O)N2C(C(=O)O)=C(S[C@@H]3CN[C@H](C(=O)N(C)C)C3)[C@H](C)[C@H]12; value = -0.28
SMILES = Cc1nc2n(c(=O)c1CCN1CCC(c3noc4cc(F)ccc34)CC1)CCCC2; value = -0.37

Set 4
Cell line: mouse MPNST tumor cells
Technique: high-content nuclear imaging
Item: cell number
Concentration: 10 µM
Time: 12 h
Notes: mean of 2 replicates
Reference: plate mean
Reading: higher = more cells
Measurement: nuclei count
SMILES = CCN(CC)CCN[C@@H](C(=O)OCCC(C)C)c1ccccc1; value = 1.12 z-score
SMILES = Nc1ccccc1NC(=O)c1ccc(CNC(=O)OCc2cccnc2)cc1; value = -0.304 z-score
SMILES = CCOC(=O)c1ccc(CN(Cc2ccc(-c3cccc(S(C)(=O)=O)c3)cc2)S(=O)(=O)c2c(C)cc(C)cc2C)o1; value = 0.561 z-score
SMILES = O=C(Nc1ncc([N+](=O)[O-])s1)c1ccccc1O; value = -0.818 z-score
SMILES = CCc1c(C(=O)NCCc2ccc(N3CCCCC3)cc2)[nH]c2ccc(Cl)cc12; value = 3.99 z-score
SMILES = C[C@]12C=CC(=O)C=C1CC[C@@H]1[C@@H]2C(=O)C[C@@]2(C)[C@H]1CC[C@]2(O)C(=O)CO; value = -0.0588 z-score
SMILES = COc1cc(C(=O)O)ccc1NC(=O)[C@@H]1N[C@@H](CC(C)(C)C)[C@](C#N)(c2ccc(Cl)cc2F)[C@H]1c1cccc(Cl)c1F; value = -5.26 z-score
SMILES = FC(F)(F)c1ccccc1-c1cc(C(F)(F)F)c2nc(C3=NOC4(CCCCC4)C3)[nH]c2c1; value = 2.4 z-score
SMILES = CCCCC1C(=O)N(c2ccccc2)N(c2ccc(O)cc2)C1=O (stereo not shown); value = -2.49 z-score and -4.16 z-score

Some of these lines once more (set 1):
target = PRKCD (Homo sapiens, UniProt Q05655); value = 98%
target = RIPK1 (Homo sapiens, UniProt Q13546); value = 97%
target = PAK2 (Homo sapiens, UniProt Q13177); value = 100%
target = MAP3K14 (Homo sapiens, UniProt Q99558); value = 63%
target = CSNK1A1 (Homo sapiens, UniProt P48729); value = 100%
target = EGFR (Homo sapiens, UniProt P00533, del752-759); value = 100%
target = SRPK2 (Homo sapiens, UniProt P78362); value = 100%
